Results collected from several papers.
Parts stem from different laboratories: compare values within a part only. Positions count from the first letter of the parent shown.

Sample 1
Target: Prothrombin, mature alpha-thrombin (F2, Homo sapiens, UniProt P00734)
Method: aptamer microarray, sandwich
Molecule type: DNA with 2'F-ANA
Sample: in vitro
Concentration: 200 nM
Setting: whole 15-mer aptamer, many near background
Added: Cy3 exosite-II aptamer, 400 nM
Reading: higher = stronger binding
Quantity: mean fluorescence intensity
Sequence: GGTTGGTGTGGTTGG
2'F-ANA at 5 7 9 11 12 14: 147 a.u.
2'F-ANA at 1 2 4 6 9 10 11 13 15: 47.9 a.u.
2'F-ANA at 1 5 6 7 10 13 15: 49.1 a.u.
2'F-ANA at 4 6 8 9 10 13 15: 82.5 a.u.
2'F-ANA at 1 2 3 11 12 14 15: 132 a.u.
2'F-ANA at 1 4 5 6 7 9 10 12 14 15: 49.1 a.u.
2'F-ANA at 1 4 5 6 8 9 11 13 15: 68.5 a.u.
2'F-ANA at 5 7 8 10 11 13: 59.5 a.u.

Sample 2
Target: Centromere-binding protein 1, full length, N-terminal tag (CBF1, Saccharomyces cerevisiae, UniProt P17106, residues 1-351)
Chain of UniProt P17106 (whole entry, looked up): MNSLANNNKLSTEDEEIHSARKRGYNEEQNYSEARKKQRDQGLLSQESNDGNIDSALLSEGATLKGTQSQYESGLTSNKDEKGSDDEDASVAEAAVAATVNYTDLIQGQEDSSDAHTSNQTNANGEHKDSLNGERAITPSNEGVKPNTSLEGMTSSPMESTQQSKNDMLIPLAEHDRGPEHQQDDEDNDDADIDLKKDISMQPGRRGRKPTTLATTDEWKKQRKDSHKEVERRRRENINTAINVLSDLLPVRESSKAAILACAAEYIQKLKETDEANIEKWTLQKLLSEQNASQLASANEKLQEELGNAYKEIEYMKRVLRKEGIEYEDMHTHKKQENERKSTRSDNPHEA
Method: protein-binding microarray
Molecule type: double-stranded DNA, one strand shown
Sample: in vitro
Concentration: 0.8 µM
Setting: whole 60-bp probe, no competitor
Reading: higher = stronger binding
Quantity: fluorescence intensity
CTAGATTTAAGGTGAGCCGTCAGGGGCTTTTAATTCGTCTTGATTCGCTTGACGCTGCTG: 517 a.u.
CTAGAAATGATTTAAAGTGATCACAGTGGCAATTTCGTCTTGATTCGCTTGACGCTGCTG: 583 a.u.
GAACTCGCATTTGGTCACGTCCTAAAAATTGTATAGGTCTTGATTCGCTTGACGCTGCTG: 1430 a.u.
CTACTCTCACAAAAAGACCTCACGTATTTTATGTTCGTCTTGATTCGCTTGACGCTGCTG: 547 a.u.
CCTAACTACTATAGTCACATCCCATAGCTTCGTACAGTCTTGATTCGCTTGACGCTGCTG: 526 a.u.
GAATTTGCTCTCGATCATCAGAGAACAGTAGAATAGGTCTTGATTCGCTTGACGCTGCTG: 602 a.u.
CTACCTAAAAATTCTCACGTTTTTCTGGCCAGATTCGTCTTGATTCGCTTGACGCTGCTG: 641 a.u.
GAATAAGGTAGAAATTGCATCAGATAAAAGTGATAGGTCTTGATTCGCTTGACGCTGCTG: 554 a.u.

Sample 3
Target: TAR DNA-binding protein 43, full length, His tag (TARDBP, Homo sapiens, UniProt Q13148, residues 1-414)
Method: RNA Bind-n-Seq
Molecule type: RNA
Sample: in vitro
Concentration: 20 nM
Setting: 6-mer, flanks averaged, single round
Added: 150 mM LiCl
Relative to: input library
Reading: higher = stronger binding
Quantity: 6-mer enrichment (R)
CUAGCG: 0.911
GAAAAA: 0.849
CGCGUC: 0.92
UUGUAC: 0.936
CUUUUG: 1.14
CGAAUG: 1
UACAGC: 0.839
CGAAAU: 0.812

Other studies, line by line
Starting sequence: PafA, mature enzyme, eGFP fusion (Elizabethkingia meningoseptica, UniProt Q9KJX5); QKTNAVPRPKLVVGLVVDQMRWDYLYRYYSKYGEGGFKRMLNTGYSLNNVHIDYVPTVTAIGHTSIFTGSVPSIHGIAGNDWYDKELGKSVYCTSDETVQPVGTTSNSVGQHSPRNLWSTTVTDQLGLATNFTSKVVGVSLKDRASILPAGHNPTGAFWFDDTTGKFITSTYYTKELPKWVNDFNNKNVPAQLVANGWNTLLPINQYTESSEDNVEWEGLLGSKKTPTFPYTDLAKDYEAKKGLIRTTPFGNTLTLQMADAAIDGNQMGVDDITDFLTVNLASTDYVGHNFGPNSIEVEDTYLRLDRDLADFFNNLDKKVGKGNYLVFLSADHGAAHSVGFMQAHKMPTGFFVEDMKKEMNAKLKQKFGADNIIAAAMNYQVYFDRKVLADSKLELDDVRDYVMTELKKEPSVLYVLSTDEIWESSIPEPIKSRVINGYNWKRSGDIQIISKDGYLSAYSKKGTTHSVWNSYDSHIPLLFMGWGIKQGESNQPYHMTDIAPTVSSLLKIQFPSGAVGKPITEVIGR
T284V — oxyanion analog dissociation constant (tungstate, free oxyanion; microfluidic competitive inhibition; in vitro, cell-free expressed; not given, derived from inhibition constants, unchanged parent 2230 nM; lower = stronger binding): 2.48 µM

For quick reference, copied from above (other studies, line by line):
T284V — oxyanion analog dissociation constant (tungstate, free oxyanion; microfluidic competitive inhibition; in vitro, cell-free expressed; not given, derived from inhibition constants, unchanged parent 2230 nM; lower = stronger binding): 2.48 µM
